Assay results of several laboratories.
Compare with care: the assays were run in different laboratories. Values joined by “and” are separate records of one study, mostly repeats; a detail may differ.

SMILES | target or system | test | system | conditions | scale | quantity | value
Nc1ncnc2c1ncn2[C@@H]1O[C@H](COP(=O)(O)CP(=O)(O)OP(=O)(O)O)[C@@H](O)[C@H]1O | P2X purinoceptor 1 (P2RX1, Homo sapiens, UniProt P51575, L218T) | saturation binding | HEK293 | 79 nM |  | specific binding | 4080 CCPM and 4090 CCPM
O=C(O)c1ccccc1Nc1cccc(C(F)(F)F)c1 | Taste receptor type 2 member 14 (TAS2R14, Homo sapiens, UniProt Q9NYV8) | G-protein dissociation, TRUPATH gustducin BRET |  | 10 µM, wild-type receptor, unit not given | relative to: vehicle | ΔBRET | -0.00927 and -0.0284 and -0.0101 and -0.0325 and -0.0563 and -0.029 and -0.0438
COc1c(O)cc(O)c2c(=O)cc(-c3ccccc3)oc12 | Catechol O-methyltransferase (COMT, Homo sapiens, UniProt P21964) | UV |  |  | relative to: native over denatured target | binding index | 7.84
CC(C)c1c(O)ccc2c1CC[C@H]1C(C)(C)CCC[C@]21C | human iPSC-derived cardiomyocytes | MyBP-C/MYH ratio, plate-normalised SD score |  | concentration not given, primary screen | direction not given | activity score | 8.4
Cn1cc(-c2ccc(-c3cncc(Cl)c3N3CCC4(CCNC4=O)CC3)cc2)cn1 | COLO 205 | gene expression, microarray, item: FAS mRNA |  | concentration not given, 2 h | relative to: untreated cells | log2 fold change | 2.03
c1ccc(C(NCc2cccnc2)(c2ccccc2)c2ccccc2)cc1 | Potassium voltage-gated channel subfamily KQT member 1 (KCNQ1, Homo sapiens, UniProt P51787) |  |  | 100 pM, tail currents above -10 mV |  | slope of normalized current vs voltage | 0.4 V⁻¹
CCCC[C@H]1C(=O)N(C)[C@@H](CCCC)C(=O)N[C@@H](CCCCNC(=O)CN2CCN(CC(=O)O)CCN(CC(=O)O)CC2)C(=O)N[C@H](C(=O)NCC(N)=O)CSCC(=O)N[C@@H](Cc2ccc(O)cc2)C(=O)N(C)[C@@H](C)C(=O)N[C@@H](CC(N)=O)C(=O)N2CCC[C@H]2C(=O)N[C@@H](Cc2c[nH]cn2)C(=O)N[C@@H](CCC(=O)O)C(=O)N2C[C@H](O)C[C@H]2C(=O)N[C@@H](Cc2c[nH]c3ccccc23)C(=O)N[C@@H](CO)C(=O)N[C@@H](Cc2cn(CC(=O)O)c3ccccc23)C(=O)N1C | Programmed cell death 1 ligand 1 (CD274, Homo sapiens, UniProt Q9NZQ7) |  | PD-L1-positive cells | concentration not given, together with: blocker 10 µM excess |  | uptake reduction | > 90%
COc1ccc(CC2c3cc(OC)c(OC)cc3CC[N+]2(C)CCC(=O)OCCCCCOC(=O)CC[N+]2(C)CCc3cc(OC)c(OC)cc3C2Cc2ccc(OC)c(OC)c2)cc1OC (stereo not drawn) | human iPSC-derived cardiomyocytes | MyBP-C/MYH ratio, plate-normalised SD score |  | concentration not given, primary screen | direction not given | activity score | 3.8
CCN1CCC[C@H]1CNC(=O)c1c(O)c(Cl)cc(Cl)c1OC | Mas-related G-protein coupled receptor member F (MRGPRF, Homo sapiens, UniProt Q96AM1) | β-arrestin recruitment, TANGO luminescence, item: MRGPRF |  | concentration not given | relative to: basal luminescence | log2 fold change | 0.328
Nc1ncnc2c1ncn2[C@@H]1O[C@H](COP(=O)(O)OP(=O)(O)O)[C@@H](O)[C@H]1O | GUK1 (Homo sapiens, UniProt Q16774) | binding, isothermal titration calorimetry |  | molar ratio 1.741, fitted curve |  | ΔH | -0.526 kcal/mol
Nc1nc2c(ncn2[C@H]2C[C@H](O)[C@@H](COP(=O)(O)OP(=O)(O)OP(=O)(O)O)O2)c(=O)[nH]1 | DNA-directed RNA polymerase subunit beta' / DNA-directed RNA polymerase subunit beta (rpoC/rpoB, Escherichia coli, UniProt P0A8T7+P0A8V2) | RNA extension, denaturing gel | Escherichia coli, elongation complex, 6-MI template | 5 µM, 10 min, 25 °C |  | incorporation efficiency | 85%
CCCC[C@@H]1NC(=O)[C@H](Cc2ccc(O)cc2)NC(=O)[C@@H]2CCCN2C(=O)[C@H](CC(=O)O)NC(=O)[C@H](C)NC(=O)[C@H](Cc2ccccc2)NC(=O)[C@@H]2CSCCC(=O)N3CN(CN(C3)C(=O)CCSC[C@@H](C(=O)N[C@@H](C)C(N)=O)NC1=O)C(=O)CCSC[C@H](NC(C)=O)C(=O)N[C@@H](CC(C)(C)C)C(=O)N1CCC[C@H]1C(=O)N[C@@H](CCC(=O)O)C(=O)N[C@H](CCCCNC(=O)CCc1cn(CC(=O)N[C@H]3CSCCC(=O)N4CN5CN(C4)C(=O)CCSC[C@H](NC(=O)[C@@H](CC(=O)O)NC(=O)[C@H](Cc4cccc6ccccc46)NC(=O)[C@@H]4CCCN4C3=O)C(=O)N[C@@H](CCSC)C(=O)N[C@@H](CCCCNC(=N)N)C(=O)N[C@@H](CC(=O)O)C(=O)N[C@@H](Cc3c[nH]c4ccccc34)C(=O)N[C@@H](CO)C(=O)N[C@@H]([C@@H](C)O)C(=O)N3CCC[C@H]3C(=O)N3C[C@H](O)C[C@H]3C(=O)N[C@@H](Cc3c[nH]c4ccccc34)C(=O)N[C@H](C(N)=O)CSCCC5=O)nn1)C(=O)N1CCC[C@H]1C(=O)N[C@@H](Cc1ccc(O)cc1)C(=O)N2 | Tumor necrosis factor receptor superfamily member 9/Nectin-4 (Homo sapiens, UniProt Q07011+Q96NY8) | reporter gene, agonist | HT-1376 coculture with reporter cells |  | relative to: background | Emax | 44 fold
C[C@H]1O[C@@H](O[C@H]2CC[C@@]3(C)[C@@H](CC[C@]4(C)[C@@H]3C=C[C@]35OC[C@@]6(CCC(C)(C)C[C@H]63)[C@@H](O)C[C@]54C)[C@]2(C)CO)[C@H](O)[C@@H](O[C@@H]2O[C@H](CO)[C@@H](O)[C@H](O)[C@H]2O)[C@H]1O | NAD-dependent protein deacetylase sirtuin-1 (SIRT1, Homo sapiens, UniProt Q96EB6) | binding, microscale thermophoresis |  | 161 nM |  | MST normalised fluorescence | 885 a.u.
CSc1ccc(C(=O)/C=C/c2cc(C)c(OC(C)(C)C(=O)O)c(C)c2)cc1 | Peroxisome proliferator-activated receptor delta (PPARD, Homo sapiens, UniProt Q03181) | reporter gene, agonist, luciferase reporter |  |  | relative to: maximal control activation | Emax | 61%
c1cncc(OC[C@@H]2CN(CCN3CCc4ccccc43)CCO2)c1 | D(4) dopamine receptor (DRD4, Homo sapiens, UniProt P21917) | radioligand binding |  | concentration not given, together with: [3H]N-methylspiperone |  | inhibition | 102%
